# Experimental data from different studies.
# Numbered parts are unrelated; each lists some results of a single study.

# Set 1 — method: RNA Bind-n-Seq; molecule type: RNA; sample: in vitro; concentration: 1 µM; notes: whole 134-nt RNA, ends assumed; added: 150 mM KCl; reference: input library; reading: higher = stronger binding
# Target: Ras GTPase-activating protein-binding protein 1, C-terminal RGG region (G3BP1, Homo sapiens, UniProt Q13283)
# UniProt Q13283, sequence (whole entry, looked up): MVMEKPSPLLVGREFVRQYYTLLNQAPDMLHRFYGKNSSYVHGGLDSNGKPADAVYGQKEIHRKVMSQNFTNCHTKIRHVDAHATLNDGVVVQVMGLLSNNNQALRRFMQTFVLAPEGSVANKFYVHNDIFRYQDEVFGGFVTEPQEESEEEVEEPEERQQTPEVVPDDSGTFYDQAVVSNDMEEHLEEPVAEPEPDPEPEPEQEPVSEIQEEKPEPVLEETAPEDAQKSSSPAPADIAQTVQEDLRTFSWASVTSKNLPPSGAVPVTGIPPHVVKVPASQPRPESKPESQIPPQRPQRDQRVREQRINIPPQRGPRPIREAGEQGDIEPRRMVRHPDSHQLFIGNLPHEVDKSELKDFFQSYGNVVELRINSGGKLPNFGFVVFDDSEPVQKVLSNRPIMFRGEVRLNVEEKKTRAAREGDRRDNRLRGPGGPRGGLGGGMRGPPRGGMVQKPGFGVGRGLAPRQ
# Constant ends, left off below: GGGAGUUCUACAGUCCGACGAUC … UGGAAUUCUCGGGUGUCAAGG
Strand,log2 enrichment
UCAAGUCCUGUGCUACACAUCGUAUGUACCGAAUCGGUGGUUUUUGGAAAAAGGAAAGUAUUAUGUUACGCCGUUCGGAUCUGCACUUCC,-1.14
CCUGUGCUACACAUCGUAUGUACCGAAUCGGGGUUUUUGGGGUUUUUGGGGUUUUUGGGGAAAGUAUUAUGUUACGCCGUUCGGAUCUGC,0.637
UUUAUCAUGAGGAGCUCAACGCGCCCAUACGGAGAAACAAAGAAGAGCCCAAGGCCCGGCCCUUGAGAGUAGGUGACACGGAGAAGCCAG,-1.93
UGGAGCUACAGAUGGUGUCCUUCCUGCCAGGUGUGUGUGGAGGCCAGUAUGAAGCUGAAAAAGCAGGUGACAGUGUGUGGGGCUGCCAUC,0.196
CUCAAGUCCUGUGCUACACAUCGUAUGUACCGAAUCGGGGUGGGGUGGGUGGGGAAAGUAUUAUGUUACGCCGUUCGGAUCUGCACUUCC,1.33
UCCCUGUCCAAGCUGAGCGCCCUCAACGAGAGCCUUGCUCAGGACAAGUUGGAUCUGAACUGCCUUGUCACCCAGGUACACUGUGCACCU,1.22
GCAGAAAGUAAAAACAAAUGGAAAUGCUUCGGAUAGUGGCAGGGGUGGGGGUUGCUAAGGAAAGGGUGGGAUGGGAGUGGGUAAAGAGUU,1.56
GUCCUGUGCUACACAUCGUAUGUACCGAAUCGGGGUUUGGGGUUUGGGGUUUUUGGGGAAAGUAUUAUGUUACGCCGUUCGGAUCUGCAC,3.73
UGGGAGGUGGAUUUUGUUUAUUUUUCUAGCUCAUUUCCAGGGGUGGGAAUUUUUUUUUAAUAUGUGUCAUGAAUAAAGUUGUUUUUGAAA,3.85
AGUCCUGUGCUACACAUCGUAUGUACCGAAUCGGGGUUUGGGGAGGGGAAAAAGGGGAAAGUAUUAUGUUACGCCGUUCGGAUCUGCACU,1.71

# Set 2 — method: protein-binding microarray; molecule type: double-stranded DNA, one strand shown; sample: in vitro; concentration: 0.8 µM; notes: whole 60-bp probe, no competitor; reading: higher = stronger binding; constant ends, left off below: … GTCTTGATTCGCTTGACGCTGCTG
# Target: Centromere-binding protein 1, full length, N-terminal tag (CBF1, Saccharomyces cerevisiae, UniProt P17106, residues 1-351)
# UniProt P17106, sequence (whole entry, looked up): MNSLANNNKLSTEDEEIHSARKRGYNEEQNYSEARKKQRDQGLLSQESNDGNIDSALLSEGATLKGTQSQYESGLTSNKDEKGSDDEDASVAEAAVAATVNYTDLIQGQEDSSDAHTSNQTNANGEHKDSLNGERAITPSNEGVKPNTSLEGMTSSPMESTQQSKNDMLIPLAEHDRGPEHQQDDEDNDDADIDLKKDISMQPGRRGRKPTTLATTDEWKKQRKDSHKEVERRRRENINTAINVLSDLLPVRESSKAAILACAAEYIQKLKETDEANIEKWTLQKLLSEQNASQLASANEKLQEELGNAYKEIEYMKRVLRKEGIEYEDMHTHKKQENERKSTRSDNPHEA
Strand,fluorescence intensity
CTACAAATATAATAGCACCTGAAATGCAAGAACTTC,551 a.u.
GAATCAAGCAAGGTTAATCACATGGCGTGGCTTTAG,2120 a.u.
CTATATATTATCCCTCTCCTGATAGTTTAATTATTC,528 a.u.
GAACTATTTGCTTCTCACGTTCTATAATATAGTTAG,878 a.u.
GAACTAATCCAGCATTCCGTGATCATAGTTTAATAG,621 a.u.
CTACCATAGATATCTCTCAAACCCTTAGCGGCGTTC,506 a.u.
GAAGAACAGCTTGTTCGCCTGATCTCCACCTTATAG,486 a.u.
GAATGGTCTGTTCTTAACGTGAAATGCTTTCCGTAG,501 a.u.
GAAGGTACCAGCGGTGACGTTCGGTAGACTCTATAG,491 a.u.
TGTACGAAGCTATGTCACGCTGCTATAGTAGTTAGG,948 a.u.
CTAGGATTCATCTTACACGCGGTCATATTAGGCTTC,563 a.u.
CTAAGGCACACCCACCACGTGCCTGTTGGCTGATTC,4590 a.u.
CTATTGAAAAATAGTCACGTGCTTAACCATTTTTTC,25400 a.u.
CTATCACGAAATGATGACACGATAGCATGTGCTTTC,695 a.u.
CTATTTTCGAGACATCAGGTAAAAAGGATAGTTTTC,519 a.u.
CTACGGTAATATAGTCAGATGAGTCACTACGAGTTC,572 a.u.
CTATCAAACCTCGTTTATGTCACGTAGAAAGAATTC,1060 a.u.
GAAATACGACTTGCGCACATGTGAATCATTAACTAG,855 a.u.
CTAGAGAACTTCTAGCACGTTGTTTACATATCTTTC,762 a.u.
GAATTCAAGTTACATGTGATATTTATTCGAGAATAG,2460 a.u.
TGTACGAAGCTATATCACAATGCTATAGTAGTTAGG,538 a.u.

# Set 3 — method: aptamer microarray, sandwich; molecule type: DNA with 2'F-ANA; sample: in vitro; concentration: 200 nM; added: Cy3 exosite-II aptamer, 400 nM; reading: higher = stronger binding; strand: GGTTGGTGTGGTTGG
# Target: Prothrombin, mature alpha-thrombin (F2, Homo sapiens, UniProt P00734)
# Notes: whole 15-mer aptamer, many near background
Modification,mean fluorescence intensity
2'F-ANA at 3 4 5 7 8 9 13 14 15,57.1 a.u.
2'F-ANA at 1 2 6 8 9 10 12 14,46.5 a.u.
2'F-ANA at 1 4 6 7 9 11 12 13 14,58.2 a.u.
2'F-ANA at 1 2 3 5 6 8 10 11 13 14,48.1 a.u.
2'F-ANA at 1 2 9 13 14 15,50.8 a.u.
2'F-ANA at 4 10 11 12 13 14 15,66.3 a.u.
2'F-ANA at 1 4 6 8 10 11 13,50.3 a.u.
2'F-ANA at 1 3 4 5 6 8 11 12 13 14 15,63.7 a.u.
2'F-ANA at 1 4 5 7 8 9 11 12 14 15,46.7 a.u.
2'F-ANA at 2 5 6 7 8 10 11 12 15,50.7 a.u.
2'F-ANA at 3 4 5 7 9 11 13 15,60.9 a.u.
2'F-ANA at 2 3 4 8 10 12 13 14,172 a.u.
2'F-ANA at 1 2 3 4 6 7 8 9 12 13,227 a.u.
2'F-ANA at 1 2 6 8 9 10 12 13,88 a.u.
2'F-ANA at 1 5 6 7 8 13 14 15,55.3 a.u.
2'F-ANA at 2 3 4 5 7 8 10 12 13 15,56.1 a.u.
2'F-ANA at 4 5 12 13 14,50.5 a.u.
2'F-ANA at 2 7 10 12 13 15,182 a.u.
2'F-ANA at 5 6 10 13 14,42.2 a.u.
2'F-ANA at 3 5 8 9 11,150 a.u.
2'F-ANA at 4 5 6 7 9 10 11 12 13 14,46.9 a.u.
2'F-ANA at 1 6 11 12 13,262 a.u.
2'F-ANA at 2 5 6 14,49.7 a.u.
2'F-ANA at 3 5 6 7 11 14,57.8 a.u.
2'F-ANA at 2 6 9 11 14,109 a.u.

# Set 4 — method: protein binding microarray; molecule type: double-stranded DNA, one strand shown; sample: in vitro; concentration: not given; reference: not given; reading: higher = stronger binding
# Target: Histone acetyltransferase KAT6A, winged helix 2, GST fusion (KAT6A, Homo sapiens, UniProt Q92794, residues 85-181)
# Notes: 8-mer, flanks averaged, mean of 2 arrays, mostly near background
# Residues (chain): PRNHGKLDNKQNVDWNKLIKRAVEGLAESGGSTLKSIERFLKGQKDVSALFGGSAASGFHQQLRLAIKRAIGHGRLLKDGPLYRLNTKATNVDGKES
Strand,E-score
CCGCTGTC,0.15
ATGTTAAT,-0.00317
AAGAATAG,0.0557
CTATGCGC,0.0615
TGCGCTAA,-0.0416
CGCTCATA,-0.141
CACGCATG,0.0311
CTGCTATA,0.128
ACACGCTC,-0.0542
ATGCCAAG,-0.057
AAAAGACG,0.0976
ACTGCGCA,0.118
CAACACGA,0.000985
